{"data": "Measurements gathered from unrelated publications", "note": "Each numbered part is a random draw from the data of one study; scales do not carry over between parts."}
{"data": "Study 1", "target": "Synaptic vesicular amine transporter (SLC18A2, Homo sapiens, UniProt Q05940)", "mode": "inhibitor", "setting": "literature data", "chain of UniProt Q05940 (whole entry, looked up)": "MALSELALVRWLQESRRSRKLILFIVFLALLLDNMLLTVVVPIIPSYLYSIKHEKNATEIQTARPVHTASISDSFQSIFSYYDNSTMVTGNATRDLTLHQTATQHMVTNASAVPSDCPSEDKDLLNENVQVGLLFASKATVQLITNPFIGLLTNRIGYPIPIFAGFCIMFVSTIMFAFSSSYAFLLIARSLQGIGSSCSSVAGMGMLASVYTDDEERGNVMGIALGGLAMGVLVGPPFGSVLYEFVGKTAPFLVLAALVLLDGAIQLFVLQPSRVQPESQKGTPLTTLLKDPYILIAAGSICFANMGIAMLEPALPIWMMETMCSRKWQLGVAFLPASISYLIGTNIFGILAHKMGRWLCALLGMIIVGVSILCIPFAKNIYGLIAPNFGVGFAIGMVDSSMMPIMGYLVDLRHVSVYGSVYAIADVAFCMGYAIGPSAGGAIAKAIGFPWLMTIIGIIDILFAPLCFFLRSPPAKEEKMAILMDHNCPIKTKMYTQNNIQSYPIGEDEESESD"}
{"SMILES": "COc1ccccc1OCC(O)CN1CCN(CC(=O)Nc2c(C)cccc2C)CC1 (stereo not drawn)", "IC50": "> 10000 nM"}
{"SMILES": "Clc1ccc(CCCOCCCN2CCCCC2)cc1", "IC50": "3640 nM"}
{"SMILES": "O=C1[C@@H]2[C@H]3CC[C@H](C3)[C@@H]2C(=O)N1C[C@@H]1CCCC[C@H]1CN1CCN(c2nsc3ccccc23)CC1", "IC50": "304 nM"}
{"SMILES": "CN1CCN(C2=Nc3ccccc3Oc3ccc(Cl)cc32)CC1", "IC50": "27200 nM"}
{"SMILES": "COC(=O)[C@H]1[C@H]2C[C@@H]3c4[nH]c5cc(OC)ccc5c4CCN3C[C@H]2C[C@@H](OC(=O)/C=C/c2cc(OC)c(OC)c(OC)c2)[C@@H]1OC", "IC50": "16 nM"}
{"SMILES": "Cc1nc2n(c(=O)c1CCN1CCC(c3noc4cc(F)ccc34)CC1)CCCC2O (stereo not drawn)", "IC50": "1270 nM"}
{"data": "Study 2", "Compound": "COc1cc(C(=O)N2CCC(N3CCN(C)CC3)CC2)ccc1Nc1ncc2c(n1)N(C)c1ccccc1C(=O)N2C", "method": "KINOMEscan", "tested at": "10 µM", "reference": "DMSO control", "direction": "lower = stronger binding"}
{"target": "LATS2", "binding [%]": 95}
{"target": "MST1R", "binding [%]": 98}
{"target": "NEK6", "binding [%]": 76}
{"target": "SLK", "binding [%]": 100}
{"target": "EPHB4", "binding [%]": 100}
{"target": "PRKCH", "binding [%]": 100}
{"target": "ITK", "binding [%]": 82}
{"target": "YANK1", "binding [%]": 100}
{"target": "HIPK1", "binding [%]": 100}
{"target": "FGFR4", "binding [%]": 28}
{"target": "TYRO3", "binding [%]": 100}
{"data": "Study 3", "species": "human", "sample": "microsomes or S9", "tested at": "2 µM", "time": "0.5 h"}
{"SMILES": "O=S1(=O)CCN2N=C(c3ccccc3)C(c3ccccc3)=NC2=N1", "remaining compound [%]": 95.5}
{"SMILES": "COC(=O)[C@@]1(C)CCC(C(=O)Nc2ccccc2C(=O)O)C1(C)C (stereo partly drawn)", "remaining compound [%]": 41.5}
{"SMILES": "Cn1cc(C(=O)Nc2ccc(C#N)cc2)c2ccccc2c1=O", "remaining compound [%]": "> 100"}
{"SMILES": "O=C(CN1N=C(c2ccccc2)Cn2c(cc3ccccc32)C1=O)N1CCN2CCCC2C1 (stereo not drawn)", "remaining compound [%]": 7.39}
{"SMILES": "c1ccc2c(c1)CC(CNc1nccc(-n3cccn3)n1)CO2 (stereo not drawn)", "remaining compound [%]": 1.18}
{"SMILES": "COc1ccccc1Cn1ccc2nc3ccn(-c4ncn[nH]4)c(=O)c3cc2c1=O", "remaining compound [%]": 79.9}
{"SMILES": "Cn1nc(CNC(=O)Cn2nc(C(F)(F)F)c3c2CCC3)c(Cl)c1Cl", "remaining compound [%]": 3.08}
{"SMILES": "COc1nc(NC(C)C)nc(N2C(=N)NC(=O)C2C)n1 (stereo not drawn)", "remaining compound [%]": "> 99.9"}
{"SMILES": "COc1ccc(C2=C(c3ccc(F)cc3F)c3ccc(OCCCN4CCN(S(C)(=O)=O)CC4)cc3C2=O)cn1", "remaining compound [%]": 95}
{"data": "Study 4", "target": "Serine/threonine-protein kinase D2 (PRKD2, Homo sapiens, UniProt Q9BZL6)", "observed": "enzyme activity", "mode": "inhibitor", "tested at": "0.5 µM", "reference": "control", "Target sequence (Q9BZL6 1-878)": "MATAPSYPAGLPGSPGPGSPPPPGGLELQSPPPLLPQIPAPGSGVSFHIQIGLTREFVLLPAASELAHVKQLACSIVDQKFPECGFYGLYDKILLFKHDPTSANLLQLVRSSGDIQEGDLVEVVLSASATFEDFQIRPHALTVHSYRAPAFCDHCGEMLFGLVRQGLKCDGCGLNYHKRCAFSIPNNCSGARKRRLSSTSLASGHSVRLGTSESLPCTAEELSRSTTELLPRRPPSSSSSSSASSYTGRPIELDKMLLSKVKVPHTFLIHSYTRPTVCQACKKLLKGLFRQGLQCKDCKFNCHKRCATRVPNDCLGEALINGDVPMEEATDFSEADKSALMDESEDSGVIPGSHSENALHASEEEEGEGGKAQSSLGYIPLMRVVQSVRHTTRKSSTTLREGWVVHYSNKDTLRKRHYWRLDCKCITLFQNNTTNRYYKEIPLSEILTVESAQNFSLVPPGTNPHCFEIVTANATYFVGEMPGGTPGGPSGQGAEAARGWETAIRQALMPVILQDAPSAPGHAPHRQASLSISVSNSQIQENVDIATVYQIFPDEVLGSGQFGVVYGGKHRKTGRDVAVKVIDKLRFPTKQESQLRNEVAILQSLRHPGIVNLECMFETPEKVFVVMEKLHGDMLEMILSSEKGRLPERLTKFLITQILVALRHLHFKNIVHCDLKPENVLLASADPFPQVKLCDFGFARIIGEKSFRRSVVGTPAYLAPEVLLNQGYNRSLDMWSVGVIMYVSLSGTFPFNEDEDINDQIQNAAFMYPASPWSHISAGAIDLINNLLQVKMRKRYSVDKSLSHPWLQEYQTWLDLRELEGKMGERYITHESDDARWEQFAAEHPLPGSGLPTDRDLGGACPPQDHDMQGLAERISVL"}
{"SMILES": "O=C1NC(=O)/C(=C/c2ccc3nccnc3c2)S1", "remaining activity [%]": 104}
{"SMILES": "Cn1cc(/C=C2\\C(=O)Nc3ccc(S(N)(=O)=O)cc32)c2ccccc21", "remaining activity [%]": 87.2}
{"SMILES": "COc1cc2ncnc(Nc3ccc(OCc4ccccc4)cc3)c2cc1OC", "remaining activity [%]": 101}
{"SMILES": "Nc1[nH]nc2nnc(-c3c(-c4ccccc4)nn4ccccc34)cc12", "remaining activity [%]": 54.1}
{"SMILES": "CCN1/C(=C/C(C)=O)Sc2ccc(OC)cc21", "remaining activity [%]": 69.4}
{"SMILES": "COc1ccc(-c2cnc3c(-c4ccsc4)cnn3c2)cc1", "remaining activity [%]": 97.7}
{"SMILES": "O=C(Nc1ccc(Cl)cc1)c1ccccc1NCc1ccncc1", "remaining activity [%]": 98}
{"SMILES": "COc1ccc(Cl)cc1NC(=O)Nc1cc(C)nc2ccccc12", "remaining activity [%]": 99.8}
{"SMILES": "Cn1cnc2cc3c(Nc4cccc(Br)c4)ncnc3cc21", "remaining activity [%]": 82.6}
{"SMILES": "CC(=O)O/N=C1/C(c2c(O)[nH]c3cc(Br)ccc23)=Nc2ccccc21", "remaining activity [%]": 87.8}
{"note": "Some of these lines once more (study 3):"}
{"SMILES": "Cn1cc(C(=O)Nc2ccc(C#N)cc2)c2ccccc2c1=O", "remaining compound [%]": "> 100"}
{"SMILES": "O=C(CN1N=C(c2ccccc2)Cn2c(cc3ccccc32)C1=O)N1CCN2CCCC2C1 (stereo not drawn)", "remaining compound [%]": 7.39}
{"SMILES": "c1ccc2c(c1)CC(CNc1nccc(-n3cccn3)n1)CO2 (stereo not drawn)", "remaining compound [%]": 1.18}
{"SMILES": "COc1ccccc1Cn1ccc2nc3ccn(-c4ncn[nH]4)c(=O)c3cc2c1=O", "remaining compound [%]": 79.9}
{"SMILES": "Cn1nc(CNC(=O)Cn2nc(C(F)(F)F)c3c2CCC3)c(Cl)c1Cl", "remaining compound [%]": 3.08}
{"SMILES": "COc1nc(NC(C)C)nc(N2C(=N)NC(=O)C2C)n1 (stereo not drawn)", "remaining compound [%]": "> 99.9"}
